# Assay results pooled from the literature.
# A part holds a random share of what one study measured.

# Series 1 — technique: RNA Bind-n-Seq; molecule type: RNA; matrix: in vitro; tested at: not given; baseline: input RNA pool; reading: higher = stronger binding
# Target: RING finger protein unkempt homolog, zinc fingers 1-6, GST-SBP tag (UNK, Homo sapiens, UniProt Q9C0B0, residues 30-357)
# UniProt Q9C0B0, sequence (30-357, looked up): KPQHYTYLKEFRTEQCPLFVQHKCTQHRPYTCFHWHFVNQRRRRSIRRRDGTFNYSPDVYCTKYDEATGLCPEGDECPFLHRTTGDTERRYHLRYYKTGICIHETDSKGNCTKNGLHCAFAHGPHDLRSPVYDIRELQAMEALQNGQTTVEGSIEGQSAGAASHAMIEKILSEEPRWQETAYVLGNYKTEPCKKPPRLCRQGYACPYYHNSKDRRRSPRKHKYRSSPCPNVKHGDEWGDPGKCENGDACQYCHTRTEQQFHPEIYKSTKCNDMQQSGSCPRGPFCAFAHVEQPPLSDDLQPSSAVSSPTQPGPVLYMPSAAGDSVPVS
# Setting: RNA with constant flanks, human and mouse sites, ends assumed
Strand,bound/input enrichment [ratio]
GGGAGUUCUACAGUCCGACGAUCGAAUAUUUGUGUUGUAUGCUUGUUCCAACCACCGCUUGUGUGAGCAUUUUUGUGGCUUGUACAGAAAGUACACUUUUAAAUUGUCUCUUGCAUCACUAAAAUUUUUUUAAAAUGAGCAUACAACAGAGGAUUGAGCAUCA,0.649
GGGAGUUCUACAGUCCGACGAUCGGCACCCUCAGCUUCACCAGCGCCGAGGACGACGAGGACGACGAGGACGAGGACGACGAGGAGGCUGGCCCUGACCAGCUGCCCCUCGGGGAUGGGACGUCAGGAGAAGACGCAGAACGGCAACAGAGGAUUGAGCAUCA,0.289
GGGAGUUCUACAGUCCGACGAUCAAAGCUCCUAUUCUGAUUGCUACAGAUGUGGCCUCCAGAGGGCUAGAUGUGGAAGAUGUGAAAUUUGUCAUCAAUUAUGACUACCCUAACUCCUCAGAGGAUUAUAUUCAUCGAAUUGGACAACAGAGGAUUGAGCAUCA,0.13
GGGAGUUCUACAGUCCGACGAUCAGACUGGAGAGAAUAAAGAGCAGUCGCAAAUGAAGCUGCCCACCCUCGGCACUCUGCAGCUUUAGUUACUGAUCUAGAAGCCCUGUAGUGUGAAGCGGCCGCUGCAGGCCAUUGUACACACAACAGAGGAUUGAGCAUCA,0.556
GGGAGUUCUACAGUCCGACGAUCUCUUGAGGAGAGUACAGAUGGGGAGGAAGGUUCCAGACUCUCCUCUCACUUUUUUUUUCCUCUCCUAUUCCAACACUUCCUGCUGGGAGAUCUCCACGCCUAUUUUCACCAUUCUCAGGCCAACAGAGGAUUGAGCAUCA,0.244

# Series 2 — technique: competition protein-binding microarray; molecule type: double-stranded DNA, one strand shown; matrix: in vitro; tested at: 2 µM; with: Pho4 competitor, 0.05 µM; reading: higher = stronger binding
# Target: Centromere-binding protein 1, full length, His-tagged (CBF1, Saccharomyces cerevisiae, UniProt P17106, residues 1-351)
# UniProt P17106, sequence (whole entry, looked up): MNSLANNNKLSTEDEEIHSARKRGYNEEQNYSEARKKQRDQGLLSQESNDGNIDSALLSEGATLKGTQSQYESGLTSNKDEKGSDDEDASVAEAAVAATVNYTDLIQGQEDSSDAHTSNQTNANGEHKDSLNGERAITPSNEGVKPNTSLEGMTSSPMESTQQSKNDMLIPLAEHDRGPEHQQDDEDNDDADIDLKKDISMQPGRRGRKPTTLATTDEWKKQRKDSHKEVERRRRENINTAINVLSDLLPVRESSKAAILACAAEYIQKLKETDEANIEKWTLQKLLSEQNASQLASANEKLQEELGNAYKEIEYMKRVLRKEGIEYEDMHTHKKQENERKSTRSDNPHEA
# Setting: whole 60-bp probe, lowest competitor level
Strand,fluorescence intensity [a.u.]
TGCGCAACAACTTTTCACGTGACATTATGTCTAGAAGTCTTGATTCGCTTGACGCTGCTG,4170
AAGTAGGAGTATAAGAGCGTGGGTAAACACAAAATGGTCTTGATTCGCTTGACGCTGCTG,68.7
TTAAGTTTGTCACCGCTCGTGGCCGCTGTACTGTCTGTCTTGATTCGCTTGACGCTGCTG,70
ATCTGGCATCTTCACCACGTTATTTCTGCTGGTGAAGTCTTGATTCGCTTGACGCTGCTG,100
CTCTAATCCCACTACCACATGCCATACTCACCTTCAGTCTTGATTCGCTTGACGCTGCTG,93.4

# Series 3 — technique: aptamer microarray, sandwich; molecule type: DNA with 2'F-ANA; matrix: in vitro; tested at: 200 nM; with: Cy3 exosite-II aptamer, 400 nM; reading: higher = stronger binding; strand: GGTTGGTGTGGTTGG
# Target: Prothrombin, mature alpha-thrombin (F2, Homo sapiens, UniProt P00734)
# Setting: whole 15-mer aptamer, many near background
Modification,mean fluorescence intensity
2'F-ANA at 1 6 8 12 13 15,350 a.u.
2'F-ANA at 3 4 6 8 11 12 13 15,775 a.u.
2'F-ANA at 1 2 3 4 7 8 11,210 a.u.
2'F-ANA at 1 4 5 10 11 12 13 14 15,53.1 a.u.
2'F-ANA at 2 3 4 6 7 8 9 10 11 14 15,197 a.u.
2'F-ANA at 1 2 3 4 5 7 8 12 13,90.3 a.u.

# Single results of other studies
Substance,target,assay,test system,conditions,how to read,quantity,value
"PhoQ, residues 284 288 289 292 302 303 NSMLDC","PhoP, residues 12 14 15 18 19 TPWLV (Escherichia coli, UniProt P23836)","Sort-seq, item: YFP reporter",E. coli,"PhoQ-PhoP variant library, with: 10 µM Mg2+","baseline: high Mg2+ state, higher = stronger signaling",fold induction,13.5

# Excerpt of the above (series 1):
Strand,bound/input enrichment [ratio]
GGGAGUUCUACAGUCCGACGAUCGGCACCCUCAGCUUCACCAGCGCCGAGGACGACGAGGACGACGAGGACGAGGACGACGAGGAGGCUGGCCCUGACCAGCUGCCCCUCGGGGAUGGGACGUCAGGAGAAGACGCAGAACGGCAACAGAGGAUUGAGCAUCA,0.289
